Results of several laboratories.
Every numbered part comes from another study and shows a few of its results, in no order.

Study 1
Target: PABPC1L2, full length, GST fusion (mouse, UniProt A0ABA7IW68)
Technique: RNAcompete
Molecule type: RNA
Medium: in vitro
Concentration: 20 nM
Notes: 7-mer, probes averaged, single round
Baseline: mean of 7-mers
Direction: higher = stronger binding
Endpoint: 7-mer Z-score
Target sequence (chain): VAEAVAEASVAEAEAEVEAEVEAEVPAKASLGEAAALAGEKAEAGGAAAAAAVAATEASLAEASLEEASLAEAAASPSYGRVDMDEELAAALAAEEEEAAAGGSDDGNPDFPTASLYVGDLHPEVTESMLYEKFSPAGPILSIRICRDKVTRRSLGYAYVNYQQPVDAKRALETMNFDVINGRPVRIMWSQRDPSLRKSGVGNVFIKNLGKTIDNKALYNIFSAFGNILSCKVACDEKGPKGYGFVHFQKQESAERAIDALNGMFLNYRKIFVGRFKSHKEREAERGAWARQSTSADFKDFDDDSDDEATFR
CAUCUAG: 0.017
CCCCCUG: -0.461
AGUUUCA: -0.306
CGCUCCG: -0.374
UGAGUUU: -0.479
UGUCUCC: -0.441
UCCUGCC: -0.467
UUAGGUC: -0.0826
CAAAAGU: 1.79
ACGGGUG: 0.0768
GUCGCCU: -0.449
UUGGCGA: -0.00108
ACAAAGC: 0.606
UACGUGU: -0.144
GGACUCU: -0.166
ACGCGCA: -0.0772
CUGGGUA: -0.0138
AAUUCGA: 0.269
GACGAGA: 0.233
UCAGGCU: -0.164
AAUGUUA: 0.0642
UUGCUUA: -0.405
CCACCUA: -0.403
GAUUCAC: -0.275
GGGUCGA: 0.419

Study 2
Target: Histone acetyltransferase KAT6A, both winged helices, GST fusion (KAT6A, Homo sapiens, UniProt Q92794, residues 1-181)
Technique: protein binding microarray
Molecule type: double-stranded DNA, one strand shown
Medium: in vitro
Concentration: not given
Notes: 8-mer, flanks averaged, mean of 2 arrays, mostly near background
Baseline: not given
Direction: higher = stronger binding
Endpoint: E-score
Target sequence (chain): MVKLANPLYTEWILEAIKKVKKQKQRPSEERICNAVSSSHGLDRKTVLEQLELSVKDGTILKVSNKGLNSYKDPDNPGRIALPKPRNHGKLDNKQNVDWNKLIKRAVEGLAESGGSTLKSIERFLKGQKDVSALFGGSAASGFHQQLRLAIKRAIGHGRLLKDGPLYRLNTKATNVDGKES
AGCCCTTA: -0.144
ATCTTTGG: -0.294
GCACAGCC: 0.144
CATCGTTC: -0.0666
GTGCATAA: -0.0149
TCGGCAAA: 0.15
AGTTGTAC: 0.0783
GCGGCGCA: 0.337
CCCTATGC: -0.138
GAAAGAGA: -0.125
ATTGCTAC: 0.0408
AGAGCTAC: -0.0386
CACCAGGC: -0.126
AGCAGATA: -0.12
ATGTCGGC: 0.141
CCCTGACC: -0.0127
AGTTGAAG: -0.282
AAGGTATC: -0.164
CTATCGAA: 0.0742
AGCTAGTG: -0.144
ACAGCTGC: -0.13
CTCCTAAA: -0.294
CCGGTGAG: 0.0781

Study 3
Target: Ras GTPase-activating protein-binding protein 1, C-terminal RGG region (G3BP1, Homo sapiens, UniProt Q13283)
Chain of UniProt Q13283 (whole entry, looked up): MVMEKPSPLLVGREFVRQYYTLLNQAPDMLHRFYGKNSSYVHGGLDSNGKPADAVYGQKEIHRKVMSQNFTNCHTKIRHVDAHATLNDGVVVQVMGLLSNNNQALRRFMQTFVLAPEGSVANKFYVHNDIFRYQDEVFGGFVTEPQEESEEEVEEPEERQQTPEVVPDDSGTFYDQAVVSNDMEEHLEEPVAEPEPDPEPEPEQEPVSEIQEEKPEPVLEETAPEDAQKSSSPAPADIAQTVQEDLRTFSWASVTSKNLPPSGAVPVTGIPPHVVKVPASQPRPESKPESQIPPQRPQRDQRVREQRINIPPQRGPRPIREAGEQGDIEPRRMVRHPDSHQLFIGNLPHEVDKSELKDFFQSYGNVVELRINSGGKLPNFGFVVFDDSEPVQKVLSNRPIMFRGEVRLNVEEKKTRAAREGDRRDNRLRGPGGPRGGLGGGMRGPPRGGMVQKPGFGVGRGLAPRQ
Technique: RNA Bind-n-Seq
Molecule type: RNA
Medium: in vitro
Concentration: 1 µM
Notes: whole 134-nt RNA, ends assumed
Together with: 150 mM KCl
Baseline: input library
Direction: higher = stronger binding
Endpoint: log2 enrichment
All sequences stand within: GGGAGUUCUACAGUCCGACGAUC … UGGAAUUCUCGGGUGUCAAGG
UCCUGUGCUACACAUCGUAUGUACCGAAUCGGGGUUUUUGGGGUUUGGGGAAAAAGGGGAAAGUAUUAUGUUACGCCGUUCGGAUCUGCA: 2.13
AAGUCCUGUGCUACACAUCGUAUGUACCGAAUCGGAAAGGAAAAAAAGGUUUUUGGAAAGUAUUAUGUUACGCCGUUCGGAUCUGCACUU: -2.2
UCCUCAAGUCCUGUGCUACACAUCGUAUGUACCGAAUCGGGGCGGCGGGCGGAAAGUAUUAUGUUACGCCGUUCGGAUCUGCACUUCCAG: -0.494
UGCGAGGUGGAUUUUGUUUAUUUUUUUAGCUCAUUUCCAGGGGUGGGAAUUUUUUUUUAAUAUGUGUCAUGAAUAAAGUUGUUUUUGAAA: 2.29
UCUAUCCUGUCCCUCCACCCCACCCUCCACCUCAAUCCCCUCCCAUCUUCCCCAGACCUACCUCACCUACUAGGACCUGAGGCAGCUCCU: 0.127
GUCCUGUGCUACACAUCGUAUGUACCGAAUCGGGUUUUUUUGGGUGGGUUUUUUUGGGAAAGUAUUAUGUUACGCCGUUCGGAUCUGCAC: 0.406
UUCCUUUCCGUUGUGUGUUUUAAAGGUGUGUGCCCUCUUCCUGAUUCUGGAGAAAAAUGCCGGUCCGGAAGCAAGGUGAGAGUUUAUUCC: 0.0571
UGGGAGGUGGAUUUUGUUUAUUUUUUUAGCUCAUUUCCAGGGGUGGGAAUUUUUUUUUAAUAUGGGUCAUGAAUAAAGUUGUUUUUGAAA: 3.44
UCCUGUGCUACACAUCGUAUGUACCGAAUCGGGGAAAAAAAGGGGUGGGGUUUUUGGGGAAAGUAUUAUGUUACGCCGUUCGGAUCUGCA: 1.61

Study 4
Target: RNA binding protein fox-1 homolog 2, RRM domain, GST-SBP tag (RBFOX2, Homo sapiens, UniProt O43251-10, residues 100-194)
Technique: RNA Bind-n-Seq
Molecule type: RNA
Medium: in vitro
Concentration: 365 nM
Notes: natural RNA segment, single round, ends assumed
Baseline: no-protein control
Direction: higher = stronger binding
Endpoint: RBNS enrichment (R)
All sequences stand within: GGGAGUUCUACAGUCCGACGAUC … UGGAAUUCUCGGGUGCCAA
Construct (chain): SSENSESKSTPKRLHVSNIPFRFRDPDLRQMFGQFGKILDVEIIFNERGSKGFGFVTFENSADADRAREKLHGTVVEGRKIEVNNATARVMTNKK
ACCUGCUUCCGCCUGGAGGAGAGCUGGGCAUCCAUGUUAGCCACAGUUCCUCAUCCACAGUGCUCCCACCUGAGGACCUGGCCCUGUGUGGAAAUUGAUUGGGAUUUGAU: 0.464
GUAUCUCCCAAUGCUUUAGUAAAACGUAUUUAGGAGAAAUGUUGAAAAUGUACAUGAAGCUCCUUUCUGAUAUAGAAACCAUUUCUGGAGUAUUUACACUGGUUUGAUGU: 1.01
UUGAUCUAAUUCUGUUUCUGGGGAGCAUCUUGUACUGUCACUGUUUUUGUACUAAAUCUUCAAAUAUUGUCUACUGUGUCAGGCAGAAACCGUUCUUAUCACGAGAAAGC: 0.54
GGGCCCCCAACAAUAGAUGGUAGCGUAAGUCUGGAGCAGCGGUGUUUCACCACCAAAUGCCUUUCCAGGCUGCCCUUCCAACACUCAGGAGAGCAUCCAGAUCCCUGGGC: 0.192
AGGACUCACCACCGUGGUCAGACCAUGCCCAGUGUGCCCAGGGCAAAGUUGGAUGGGCAGGUGCAGACGAGGCCCAGCCUUCAUCCUGCUUUCCCUCGCAAGCCCUUCUA: 0.204
AGGGAAGCAUUCAUGGUCCUCUGUUAUCAGCAGGGGUUUAUGUCACUUGCUGUCCGGUUUCCUAGGGGCUUCCUGUGCCCCUUCCCCAGCUAUCCUCCAGGUGGCUAGGG: 0.251
AAUACCCACAACAACUGUAGUUUCUUACUUGGCCAAGAGAAUGCUUAUUUAAGUGUUAGACUUCCAUUCUGGCAAAAUCUUGCCUUAUCAGAAGACAUUGGAAAGAGGGA: 0.261
CAAAGACCACCAAACGCAGGGUGGACUCUGCUCAUUAUUCUUUGACCCAGAAAGACUGGAGAAGGUAUGUGCUUUAAGUGCUGCUCUACCUGAAAAGAAAUCCUUUAAAU: 0.297

Some of these lines once more (study 1):
AAUGUUA: 0.0642
UACGUGU: -0.144
CCACCUA: -0.403
UGUCUCC: -0.441
UUAGGUC: -0.0826
GAUUCAC: -0.275
GUCGCCU: -0.449
ACGCGCA: -0.0772
CUGGGUA: -0.0138
CCCCCUG: -0.461
